Measured values pooled from the literature.
Each line is one published result; not all experiments were run side by side.

| SMILES | organism | test | test system | conditions | MIC |
| --- | --- | --- | --- | --- | --- |
| CC[C@H](C)[C@H](NC(=O)[C@H](CC(C)C)NC(=O)[C@H](CCC(N)=O)NC(=O)[C@H](CO)NC(=O)[C@H](CCCNC(=N)N)NC(=O)[C@@H](N)CO)C(=O)N[C@H](C(=O)N[C@@H](Cc1c[nH]cn1)C(=O)N[C@@H](CCC(N)=O)C(=O)N[C@@H](CCCNC(=N)N)C(=O)N[C@@H](CC(C)C)C(=O)N[C@@H](Cc1ccccc1)C(N)=O)C(C)C | Trichophyton rubrum | broth microdilution | ATCC 28189 | – | > 400 µg/mL |
| CC[C@H](C)[C@H](NC(=O)[C@H](Cc1c[nH]c2ccccc12)NC(=O)[C@H](CCCNC(=N)N)NC(=O)[C@H](CCC(N)=O)NC(=O)[C@@H](NC(=O)[C@H](Cc1c[nH]c2ccccc12)NC(=O)[C@H](CCCNC(=N)N)NC(=O)[C@H](CCCNC(=N)N)NC(=O)[C@H](C)NC(=O)[C@H](C)NC(=O)[C@H](C)NC(=O)[C@@H](NC(=O)[C@H](CCCCN)NC(=O)[C@@H]1CCCN1C(=O)[C@H](CCCNC(=N)N)NC(=O)[C@H](Cc1c[nH]c2ccccc12)NC(=O)[C@H](CCCNC(=N)N)NC(=O)[C@H](CCCNC(=N)N)NC(=O)[C@@H](NC(=O)[C@H](Cc1c[nH]c2ccccc12)NC(=O)[C@H](CCCNC(=N)N)NC(=O)[C@H](CCC(N)=O)NC(=O)[C@@H](NC(=O)[C@H](Cc1c[nH]c2ccccc12)NC(=O)[C@H](CCCNC(=N)N)NC(=O)[C@@H](N)CCCNC(=N)N)C(C)C)[C@@H](C)CC)C(C)C)C(C)C)C(=O)N[C@@H](CCCNC(=N)N)C(=O)N[C@@H](CCCNC(=N)N)C(=O)N[C@@H](Cc1c[nH]c2ccccc12)C(=O)N[C@@H](CCCNC(=N)N)C(=O)N1CCC[C@H]1C(=O)N[C@@H](CCCCN)C(=O)N[C@H](C(N)=O)C(C)C | Malassezia furfur | – | DTO 383-D8 | 48 h, 30 °C | 5 µM |
| [O-][N+]1=C(c2ccccc2)C2=NCCN2c2ccccc21 | Bacteroides ovatus | – | ATCC 84834 | – | ≤ 0.06 µg/mL |
| CC[C@H](C)[C@H](NC(=O)[C@H](CO)NC(=O)[C@H](CO)NC(=O)[C@H](Cc1ccccc1)NC(=O)CN)C(=O)N[C@@H](Cc1ccccc1)C(=O)N[C@@H](CCCNC(=N)N)C(N)=O | Escherichia coli | – | ATCC 8739 | with: 2.5 mM CaCl2 | > 128 µM |
| [O-][N+]1=C(c2ccccc2)C2=NCCCN2c2ncccc21 | Eggerthella lenta | microbial growth | ATCC43055 | – | ≤ 0.06 µg/mL |
| CC[C@H](C)[C@H](NC(=O)[C@@H](NC(=O)CN)C(C)C)C(=O)N[C@@H](Cc1ccccc1)C(=O)N[C@@H](CC(N)=O)C(=O)N[C@@H](C)C(=O)N[C@@H](CC(C)C)C(=O)N[C@@H](CCCCN)C(=O)NCC(=O)N[C@H](C(=O)N[C@@H](C)C(=O)N[C@@H](CCCCN)C(=O)N[C@H](C(=O)N[C@H](C(=O)N[C@@H](C)C(=O)N[C@@H](C)C(=O)N[C@@H](CCC(N)=O)C(=O)N[C@@H](CC(C)C)C(=O)N[C@@H](CC(C)C)C(=O)N[C@@H](CCCCN)C(=O)N[C@@H](CCCCN)C(=O)N[C@@H](C)C(=O)N[C@@H](CCCNC(=N)N)C(=O)N[C@H]1CSSC[C@@H](C(=O)O)NC(=O)[C@H](CO)NC(=O)[C@H](CCCCN)NC(=O)[C@H](CC(=O)O)NC(=O)[C@H](CC(C)C)NC(=O)[C@H](CCCCN)NC1=O)C(C)C)[C@@H](C)O)C(C)C | Staphylococcus aureus | – | NCTC 10788, Mueller-Hinton broth | with: ZnCl2 8 mM | 2 µM |
| CC1C(=NOCc2cc(-c3ccc(Cl)cc3)no2)C(C)C(c2ccc(Br)cc2)OC1c1ccc(Br)cc1 (stereo not shown) | Aspergillus flavus | microbial growth | – | – | 50 µg/mL |
| CC(C)C[C@@H]1NC(=O)[C@H](C)NC(=O)[C@H](NC(=O)[C@H](CO)NC(=O)[C@@H](CCCCN)NC(=O)[C@@H](CC(C)C)NC(=O)[C@@H](N)Cc2ccccc2)[C@H](C)OC(=O)[C@H](CC(C)C)NC1=O | Bacillus subtilis Bacillus subtilis | – | ATCC 6051 | tested as TFA salt | 1 µg/mL |
| [O-][N+]1=C(c2ccsc2)C2=NCCCN2c2ccccc21 | Bacteroides ovatus | – | ATCC 84834 | – | 1 µg/mL |
| N#Cc1ccc(-c2c[nH]c(CNC(=O)Nc3ncc(Sc4ccccn4)s3)n2)cc1 | Bacteroides ovatus | broth microdilution | ATCC 8485 | with: verapamil 50 µg/mL | > 128 µM |

Repeated from above:
| SMILES | organism | test | test system | conditions | MIC |
| --- | --- | --- | --- | --- | --- |
| [O-][N+]1=C(c2ccsc2)C2=NCCCN2c2ccccc21 | Bacteroides ovatus | – | ATCC 84834 | – | 1 µg/mL |
